Results of several laboratories.
Every numbered part comes from another study and shows a few of its results, in no order.

Block 1 — method: universal PBM; molecule type: double-stranded DNA, one strand shown; matrix: in vitro; concentration: not given; reading: higher = stronger binding
Target: Sal-like protein 4, full length isoform B (SALL4, Homo sapiens, UniProt Q9UJQ4-2, residues 1-616)
Notes: 8-mer, flanks averaged, mean of replicates
Construct (chain): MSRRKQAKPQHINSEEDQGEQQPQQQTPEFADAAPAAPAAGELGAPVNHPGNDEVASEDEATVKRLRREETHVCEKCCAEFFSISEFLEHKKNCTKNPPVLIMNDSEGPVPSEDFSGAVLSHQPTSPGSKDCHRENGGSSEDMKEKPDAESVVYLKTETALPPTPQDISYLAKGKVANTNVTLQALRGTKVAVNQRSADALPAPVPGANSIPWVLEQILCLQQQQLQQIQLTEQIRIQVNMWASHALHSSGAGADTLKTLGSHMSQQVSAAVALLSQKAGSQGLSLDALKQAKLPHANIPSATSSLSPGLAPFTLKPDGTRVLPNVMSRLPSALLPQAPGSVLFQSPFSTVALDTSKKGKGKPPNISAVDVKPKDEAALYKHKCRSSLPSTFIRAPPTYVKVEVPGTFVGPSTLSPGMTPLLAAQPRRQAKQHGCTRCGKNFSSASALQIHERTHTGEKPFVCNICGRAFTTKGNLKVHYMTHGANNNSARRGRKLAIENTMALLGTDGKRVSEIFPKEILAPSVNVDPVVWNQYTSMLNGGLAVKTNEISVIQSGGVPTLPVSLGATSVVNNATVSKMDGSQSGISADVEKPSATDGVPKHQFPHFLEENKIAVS
Sequence	E-score
CACGAGGA	-0.152
CAATCAAC	0.00315
AGCGTCGC	-0.185
ACCAATAA	0.254
TACGATAA	0.325
AAGCCCAA	0.102
CATCCTGG	-0.0659
CGCCCCCG	-0.343
CACCCCGG	-0.233
AACTACCT	0.0248
GCAATTGC	0.226
ACGAAAAT	0.343
GGTACACA	-0.0311
CTCTACCC	-0.132
CCTCTGGA	-0.172
AGATGTCC	-0.0862
AAATAGCT	0.156
CTTAGGTC	-0.17
AGAACAAC	0.0335
TACCAGAA	0.0695
CGCCAGAA	-0.185
CAACCATC	-0.0755
CCCGCGTA	-0.156
CATAGGCA	0.0435
ACTTACCT	0.0249

Block 2 — method: aptamer microarray, sandwich; molecule type: DNA with 2'F-ANA; matrix: in vitro; concentration: 200 nM; with: Cy3 exosite-II aptamer, 400 nM; reading: higher = stronger binding; sequence: GGTTGGTGTGGTTGG
Target: Prothrombin, mature alpha-thrombin (F2, Homo sapiens, UniProt P00734)
Notes: whole 15-mer aptamer, many near background
Modification	mean fluorescence intensity [a.u.]
2'F-ANA at 1 3 4 5 6 8 9	70.5
2'F-ANA at 2 3 6 7 10 11 12 14	288
2'F-ANA at 2 4 5 7 8 10 11 13	46
2'F-ANA at 1 2 3 4 5 6 8 9 11 12 13	70.5
2'F-ANA at 2 6 7 9 12 13 14 15	140
2'F-ANA at 1 2 3 4 7 8 9 10 12 13 14 15	51.3
2'F-ANA at 1 2 5 7 13 14 15	46.1
2'F-ANA at 2 4 5 7 8 10 12 14 15	48.6
2'F-ANA at 1 3 4 5 6 8 12 15	113
2'F-ANA at 2 3 4 10 11 12 14	200
2'F-ANA at 1 2 5 6 7 8 9 12 13 15	76.6
2'F-ANA at 1 2 3 7 10 12	195
2'F-ANA at 1 4 7 8 9 11 12 13	169
2'F-ANA at 1 2 3 4 6 9 10 11 14	54.3
2'F-ANA at 2 4 6 8 11 14	91.2
2'F-ANA at 4 6 7 10 12 13 14	73.8
2'F-ANA at 1 3 4 7 8 10 11 14 15	50.5
2'F-ANA at 2 3 6 8 9 12 13	728
2'F-ANA at 3 5 10 11 12 13 14	131
2'F-ANA at 1 2 4 8 12	406
2'F-ANA at 2 3 7 8 9 10 11 12 14 15	238
2'F-ANA at 4 5 7 8 9 11 12 13	72.4

Block 3 — method: RNA Bind-n-Seq; molecule type: RNA; matrix: in vitro; concentration: not given; relative to: input RNA pool; reading: higher = stronger binding
Target: RING finger protein unkempt homolog, zinc fingers 1-6, GST-SBP tag (UNK, Homo sapiens, UniProt Q9C0B0, residues 30-357)
UniProt Q9C0B0, sequence (30-357, looked up): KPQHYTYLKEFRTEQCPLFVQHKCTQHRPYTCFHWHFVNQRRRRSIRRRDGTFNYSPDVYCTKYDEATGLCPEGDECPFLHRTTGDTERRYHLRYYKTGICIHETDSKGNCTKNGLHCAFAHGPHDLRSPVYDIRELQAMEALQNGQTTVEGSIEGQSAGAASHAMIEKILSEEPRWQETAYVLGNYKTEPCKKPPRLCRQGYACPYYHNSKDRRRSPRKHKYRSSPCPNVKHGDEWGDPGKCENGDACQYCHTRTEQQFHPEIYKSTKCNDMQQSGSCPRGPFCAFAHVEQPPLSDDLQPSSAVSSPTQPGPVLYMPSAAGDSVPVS
Notes: RNA with constant flanks, human-mouse chimeric sites, ends assumed
Constant ends, left off below: GGGAGUUCUACAGUCCGACGAUC … CAACAGAGGAUUGAGCAUCA
Sequence	bound/input enrichment [ratio]
ACUCUUGACUCUUUCCAUCCUCUUCCUUUCCCUCUUGAUAUUCAAGGCCAUGAAUCCCAAAAUAACAAUCUAUCUUACUAGCACCCAAACAGAGGUGGGUGCCAUCCACCCCAGUGUCUC	0.816
CGGAGCCCUCCUCUCCCACAGGCCCAAGAUAUAACCCACCAGUGCCUUUUGUCUUCCUGUCAGCUCUGUCAAUCACGGCCCUGCCUUGUCCCUCUCACCAAGUGCCCAAAGUGGGGAGGG	0.485
UAUAUCACCAAUGUCCUACAAAAUCCUGACUUGGCUCUGAGAAUGGCUGUGCGGAACAACUUAGCCGGUGCUGAAGAACUCUUUGCCCGGAAAUUUAAUGCUCUCUUCGCCCAGGGAAAC	0.587
GGGGAGAAACCUUACGAGUGUGUGCAGUGUGGGAAAUCCUACAGUCAGAGCUCAAACCUUUUUAGACAUCAGAGACGACACAAUGCAGAAAAACUUUUGAAUGUUGUGAAGGUUUAAGAA	0.238
CUUAAUGUUAAUAUUUUUGAAUAAAUGAAGCUAAAAUGUCUGCUUUUGGUACAACACGCAUUAGCGAAAGGUUAAGUUUUGUUUUCCACUGAAGUACUAUUUAACAUACAUCUCAGAAAC	0.463
CCCUCCCCGGGCCACCCACCCCUCCCGCUCCCAGCGGGAGAUCCAGGUUUCUUCUUAUUUCAUAGCCAAUAAGAAAAAUGUUCUACGCACAUUUUGUCCUCAGUAAACGAGGGCCUCUGG	0.481
UACAUUUUAUUGUUGAGUUUCAUUUUCAUAUAUUCUUGUAGUGUCUGCUUGCCUGUGUCUUUUAGUAAAAUAAAAUAAGCCUUUGAAAAUAUUUUAGCAUGGUAUUUAACAUUUUCUAAA	5.63
GGCCUGGGACCGUCCUGGGCUAGUACAAAUAGCGGCAGUGGAGGCUCGAGAGGAAAGUUGUUAGUGGAGGCAGUGGUUAGAGGCCGUCAUGUACGGUCCUUUACUCGAUAGAUGUGUUCU	0.584
GGGACUGAUUCAUCCCAAGGACAGGCCACCCCAUUUGAUGCCUGGACUGAUGACAGUAUGGAAGGGCCUAGUCAAAAUGUUGAAGCUGAGUCAAUUCAAGAUAAUGCGCAUAUGGCAGAG	0.318
GCAGGAUCUUCUAAGUACCAGUGGGACAUUAUGAAAUCCCUUGGGCUCUCUGAUGACGAGAUAGUAAAGUUUUCUGAAGCAGAACAUUGGCUUGAUUAUUUCCCACCACUGGCCGUUCAG	0.263
ACUCAGAGAUCCACCUCCCAAAGUGCUGGGAGUAAAGGUGUGGCCACCACACCUAACUUGAUGGAUAUAUAUUUUUUUUAAUAUGAAUCUUCCUGUUCUUCAUCCAGAGAAAGAUUUGUU	0.832

Block 4 — method: RNA Bind-n-Seq; molecule type: RNA; matrix: in vitro; concentration: 200 nM; notes: whole 134-nt RNA, ends assumed; with: 150 mM LiCl; relative to: input library; reading: higher = stronger binding; all molecules: 7-deaza-guanosine replaces G
Target: Fragile X messenger ribonucleoprotein 1, C-terminal low-complexity region (Fmr1, Mus musculus, UniProt P35922)
Constant ends, left off below: GGGAGUUCUACAGUCCGACGAUC … UGGAAUUCUCGGGUGUCAAGG
Sequence	log2 enrichment
UGGGAGGGGGAUUUUGUUUAUUUUUUUAGCUCAUUUCCAGGGGUGGGAAUUUUUUUUUAAUAUGUGUCAUGAAUAAAGUUGUUUUUGAAA	0.0859
UCCUGUGCUACACAUCGUAUGUACCGAAUCGGGUUUUUUGGGUUUUUUGGUUUUUUGGGAAAGUAUUAUGUUACGCCGUUCGGAUCUGCA	-0.302
CACAGACAACACGCACCCACACAGACACAGAGGGAAGGGGUUGGGAUGGGGACAGGGUGCACAACAGGGCGGGGUAGGACCCCAGCCCCU	0.116
CCUGUGCUACACAUCGUAUGUACCGAAUCGGGAAAAAGGGAAAAAAAGGGAAAAAAAGGGAAAGUAUUAUGUUACGCCGUUCGGAUCUGC	-0.251
ACCAUGCAGGUGGGCAUUUUUGGGAAGUGGGGCAAGGGGGGGAUAGGGAGGGGGGUAACACUUUGGGAACAGGUGGUCCCAGGUCGUUUC	1.41
UCAAGUCCUGUGCUACACAUCGUAUGUACCGAAUCGGGUUUGGUUUGGGUUUGGAAAGUAUUAUGUUACGCCGUUCGGAUCUGCACUUCC	-1.37
CUCAAGUCCUGUGCUACACAUCGUAUGUACCGAAUCGGAGGUUUGGUUUUUGGAAAGUAUUAUGUUACGCCGUUCGGAUCUGCACUUCCA	-0.48
CUCAAGUCCUGUGCUACACAUCGUAUGUACCGAAUCGGUUGGGGUUGGGUUGGAAAGUAUUAUGUUACGCCGUUCGGAUCUGCACUUCCA	0.124

Some of these lines once more (block 1):
Sequence	E-score
AGAACAAC	0.0335
CGCCAGAA	-0.185
AAGCCCAA	0.102
CGCCCCCG	-0.343
CCCGCGTA	-0.156
CAATCAAC	0.00315
